# Experimental data from different studies.
# Compare with care: the assays were run in different laboratories. ± marks the error that the study gave.
SMILES,test,test system,setting,how to read,endpoint,result
NS(=O)(=O)NCC(F)(F)c1ccccc1F,,mouse,"oral, 5 mg/kg, at Cmax",,brain to plasma ratio,2.4
N#Cc1cc(C(=O)OCC[18F])c(C(F)(F)F)nc1N1CCN(C(=O)Cc2ccccc2)CC1,dynamic PET,healthy C57BL/6 mouse,"intravenous, 11.1 MBq",,brain SUVmean,0.69 ± 0.11
C[C@H](CN(C)Cc1ccccc1)NC(=O)c1ccc(-c2noc(C(F)(F)[18F])n2)cc1,microPET,mouse,30 min after injection,,brain uptake,3.06 ± 0.19 %ID/cc
CCC1CC2C(C)=CC3C(=O)CCCC3C=CC(C)=CC2C(=O)O1 (stereo not shown),,"ICR mouse (male), brain","intravenous, 2 mg/kg, 30 min",,brain concentration,10.8 ± 3.6 ng/g
N#CCc1cccc(Cl)c1-c1ccc2[nH][11c](=O)[nH]c2c1,,mouse,5 min,reference: no inhibitor,brain uptake,0.5 ± 0.1 %ID/g
COc1ccc(NC(=O)N2CCCN3CCC(c4ccc(C#CC5CCCC5)cc4)C3C2)cc1 (stereo not shown),,"CD-1 mouse, brain homogenate",dose not given,,brain tissue binding,100%
O=S(=O)(N[C@@H]1CCC[C@H](N2c3ccccc3Oc3ccccc32)[C@H]1O)c1ccc(OC(F)(F)F)cc1,,"mouse, brain","oral, 30 mg/kg twice daily",,brain exposure,10 µM
C=CC(=O)Nc1cc(Nc2nccc(-n3ccc4nc(OC)ccc43)n2)c(OC)cc1N(C)CCN(C)C,,"BALB/c nude mouse, H1975 intracranial","oral, 60 mg/kg, 1 h",,brain tumour to tumour-free brain ratio,5.46
Nc1nc(Cl)nc2c1ncn2Cc1cc(OCC(F)F)cc(OC(F)F)c1,,"C57BL/6J mouse male, brain homogenate","oral, 5.0 mg/kg, 4 h",,brain concentration,~281 nM
Cc1c(C(=O)Nc2ccn(C)n2)ncn1Cc1cccc(C(F)(F)F)c1,,"C57BL/6 mouse, non-transgenic, brain","drinking water, 50 mg/kg daily, 10 days",,brain concentration,368 ± 115 ng/g
O=C1CCc2ccc(NS(=O)(=O)c3cccc(Oc4ccccc4)c3)cc2N1,,"C57BL/6J mouse, brain",3 mg/kg,reference: oral over subcutaneous,brain Cmax ratio,84%
Cc1cc2c(c(=O)o1)C=C1CCC(C(C)CNCc3ccc(O)cc3)CC1O2 (stereo not shown),HPLC-MS,mouse,"ip, dose not given, 30 min",,brain concentration,18600 ng/mL
[11CH3]N1CCCC[C@H]1[C@@H](NC(=O)c1nccc(C(F)(F)F)c1Cl)c1cccc(-c2cn[nH]c2)c1,,"male ddY mouse, brain","iv, 15 min",,brain uptake,0.19 % injected dose/g

# Some of these lines once more:
SMILES,test,test system,setting,how to read,endpoint,result
Nc1nc(Cl)nc2c1ncn2Cc1cc(OCC(F)F)cc(OC(F)F)c1,,"C57BL/6J mouse male, brain homogenate","oral, 5.0 mg/kg, 4 h",,brain concentration,~281 nM
